Assay results from different studies.
Every numbered part comes from another study and shows a few of its results, in no order.

Series 1
Cell line: HEK-293T/ACE2
Tested at: 10 µM
Time: 16 h
Baseline: vehicle
| Compound | viability [%] |
| --- | --- |
| C[C@H]1COc2c(N3CCN(C)CC3)c(F)cc3c(=O)c(C(=O)O)cn1c23 | 100 |
| Cc1cn([C@H]2C[C@H](N=[N+]=[N-])[C@@H](CO)O2)c(=O)[nH]c1=O | 98.1 |
| CC1Cc2ccccc2N1NC(=O)c1ccc(Cl)c(S(N)(=O)=O)c1 (stereo not drawn) | 103 |
| CN1CC(=O)N2[C@H](c3ccc4c(c3)OCO4)c3[nH]c4ccccc4c3C[C@@H]2C1=O | 101 |

Series 2
Target: Replicase polyprotein 1ab, polymerase (rep, Severe acute respiratory syndrome coronavirus 2, UniProt P0DTD1)
Read-out: enzyme activity
Mode: inhibitor
Tested at: 20 µM
| Structure (SMILES) | inhibition |
| --- | --- |
| CCCCCOc1ccc(-c2cc(-c3ccc(C(=O)N[C@H]4C[C@@H](O)[C@@H](O)NC(=O)[C@@H]5[C@@H](O)[C@@H](C)CN5C(=O)[C@H]([C@H](O)CC(N)=O)NC(=O)[C@H]([C@H](O)[C@@H](O)c5ccc(O)c(OS(=O)(=O)O)c5)NC(=O)[C@@H]5C[C@@H](O)CN5C(=O)[C@H]([C@@H](C)O)NC4=O)cc3)no2)cc1 | 6.17% |
| COc1ccc2[nH]c([S+]([O-])Cc3ncc(C)c(OC)c3C)nc2n1 (stereo not drawn) | 43.8% |
| Cc1nc(C)c(C)nc1C | -3.43% |
| Cc1cccc(OCC(O)CNC(C)(C)C)c1C (stereo not drawn) | -0.42% |
| CCCCCCCCCCC(C)(C)C(=O)Nc1c(OC)cc(OC)cc1OC | -0.77% |
| CCCCCCCCCCCCCCCC(=O)OC[C@H](O)[C@H]1OC(=O)C(O)=C1O | -0.26% |
| COc1ccc2c(c1)c(C1=C(c3c[nH]c4ccccc34)C(=O)NC1=O)cn2CCCN(C)C | 11.3% |
| CC(C)[N+](C)(CCOC(=O)C1c2ccccc2Oc2ccccc21)C(C)C | 31.6% |
| COc1cc(/C=C/C(=O)O)ccc1O | -4.5% |
| NS(=O)(=O)c1ccc(S(=O)(=O)Nc2cccc3c(Cl)c[nH]c23)cc1 | 1.91% |
| CNC(C)CC1CCCCC1 (stereo not drawn) | 5.19% |
| CCOC(N)=O | -2.07% |
| CO[C@@]1(NC(=O)CSCC#N)C(=O)N2C(C(=O)O)=C(CSc3nnnn3C)CS[C@@H]21 | 16.9% |
| Cc1nc(N(C)C(=O)Cc2ccc(-c3ccccn3)cc2)sc1S(N)(=O)=O | 2.09% |
| COc1ccc(C2CC(c3c(O)cc(C)oc3=O)=NCCS2)c(OC)c1 (stereo not drawn) | 2.08% |
| CN(C)C(=O)Oc1cccc([N+](C)(C)C)c1 | 31.3% |
| COc1ncc(-c2ccc3nccc(-c4ccnnc4)c3c2)cc1NS(=O)(=O)c1ccc(F)cc1F | 16.1% |
| NS(=O)(=O)c1ccc(-n2nc(C(F)(F)F)cc2-c2ccc(Cl)cc2)cc1 | -2.63% |
| COC(=O)/C=C/c1cccc(N(Cc2ccc(-c3ccc(N(C)C)cc3)cc2)C(=O)C2CCCCC2)c1 | 0.89% |
| C=C[C@@]1(C)CC(=O)[C@]2(O)[C@@]3(C)[C@@H](O)CCC(C)(C)[C@@H]3[C@H](OC(=O)CCN(C)C)[C@H](OC(C)=O)[C@@]2(C)O1 | -6.58% |
| Oc1ccc(Cl)cc1Cc1cc(Cl)ccc1O | -1.86% |
| C/C(=N\NC(=S)N1CCC1)c1ccccn1 | -2.38% |
| O=C(O)CN1CCN(CC(=O)O)CCN(CC(=O)O)CCN(CC(=O)O)CC1 | -4.79% |
| CC(C)(C)c1ccc(-c2nc3ccccc3[nH]2)cc1 | 3.61% |
| Nc1c(S(=O)(=O)O)cc(Nc2cccc3ccccc23)c2c1C(=O)c1ccccc1C2=O | 53.2% |

Series 3
Target: Ras GTPase-activating protein-binding protein 1, full length (G3BP1, Homo sapiens, UniProt Q13283)
Chain of UniProt Q13283 (whole entry, looked up): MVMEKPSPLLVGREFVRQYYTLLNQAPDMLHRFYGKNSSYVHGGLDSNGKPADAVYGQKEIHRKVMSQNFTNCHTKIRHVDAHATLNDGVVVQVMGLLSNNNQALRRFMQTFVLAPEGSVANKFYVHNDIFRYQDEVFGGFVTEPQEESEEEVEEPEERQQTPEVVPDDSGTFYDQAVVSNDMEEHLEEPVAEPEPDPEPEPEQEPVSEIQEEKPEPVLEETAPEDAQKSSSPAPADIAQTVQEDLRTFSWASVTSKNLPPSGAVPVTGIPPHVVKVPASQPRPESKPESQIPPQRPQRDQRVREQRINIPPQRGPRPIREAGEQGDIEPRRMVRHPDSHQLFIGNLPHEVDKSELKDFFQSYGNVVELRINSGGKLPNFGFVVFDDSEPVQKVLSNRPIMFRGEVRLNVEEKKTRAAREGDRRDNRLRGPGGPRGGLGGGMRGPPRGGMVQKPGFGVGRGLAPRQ
Technique: RNA Bind-n-Seq
Form: RNA
Matrix: in vitro
Tested at: 200 nM
Setting: whole 134-nt RNA, ends assumed
With: 150 mM KCl
Baseline: input library
Reading: higher = stronger binding
Shared flanks, not repeated: GGGAGUUCUACAGUCCGACGAUC … UGGAAUUCUCGGGUGUCAAGG
| Sequence | log2 enrichment |
| --- | --- |
| CCUCAAGUCCUGUGCUACACAUCGUAUGUACCGAAUCGGGCGGCGGGGCGGGAAAGUAUUAUGUUACGCCGUUCGGAUCUGCACUUCCAG | 0.962 |
| UGGCCCUGGUGGCAUGCGGGGAGGAAGAGGUGGCCUCAUGGAUCGUGGUGGUCCCGGUGGGAUGUUCAGAGGUGGCCGUGGUGGAGACAG | 0.278 |
| AGUCCUGUGCUACACAUCGUAUGUACCGAAUCGGGUUUGGGUUUUUUUGGGUUUGGGAAAGUAUUAUGUUACGCCGUUCGGAUCUGCACU | -0.0705 |
| GUCCUGUGCUACACAUCGUAUGUACCGAAUCGGGGAAAAAGGGAAAAAGGGAAAAAGGAAAGUAUUAUGUUACGCCGUUCGGAUCUGCAC | -0.441 |
| AGUCCUGUGCUACACAUCGUAUGUACCGAAUCGGAAAGGUUUUUUUGGUUUUUUUGGAAAGUAUUAUGUUACGCCGUUCGGAUCUGCACU | -1.68 |
| AAGUCCUGUGCUACACAUCGUAUGUACCGAAUCGGGAAAAAAAGGGUGGGUUUGGGAAAGUAUUAUGUUACGCCGUUCGGAUCUGCACUU | 0.236 |
| UAUCAGGAGGGCAGACUUCAAAAGCUACUAAAAAUGAACGGCCCUGAAGAUCUUCCCAAGUCCUAUGACUAUGACCUUAUCAUCAUUGGA | -1.08 |
| UGGGAGGUGGAUUUUGUUUAUUUUUUUAGCUCAUUUCCAGGGGUGGGAAUUUUUUUUUACUAUGUGUCAUGAAUAAAGUUGUUUUUGAAA | 0.115 |

Series 4
Target: Interferon regulatory factor 7, full length, phosphomimetic (IRF7, Homo sapiens, UniProt Q92985, residues 1-503, S471D/S472D/S475D/S476D/S477D/S483D/S484D/S487D)
Technique: protein-binding microarray
Form: double-stranded DNA, one strand shown
Matrix: in vitro
Tested at: 2200 nM top
Setting: 60-bp whole probe
With: salmon DNA 0.4 mg/ml
Baseline: random background probes
Reading: higher = stronger binding
Shared flanks, not repeated: GCCTAGCAC … GTGCTAGGTCTTGATTCGCTTGACGCTGCTG
Residues (chain): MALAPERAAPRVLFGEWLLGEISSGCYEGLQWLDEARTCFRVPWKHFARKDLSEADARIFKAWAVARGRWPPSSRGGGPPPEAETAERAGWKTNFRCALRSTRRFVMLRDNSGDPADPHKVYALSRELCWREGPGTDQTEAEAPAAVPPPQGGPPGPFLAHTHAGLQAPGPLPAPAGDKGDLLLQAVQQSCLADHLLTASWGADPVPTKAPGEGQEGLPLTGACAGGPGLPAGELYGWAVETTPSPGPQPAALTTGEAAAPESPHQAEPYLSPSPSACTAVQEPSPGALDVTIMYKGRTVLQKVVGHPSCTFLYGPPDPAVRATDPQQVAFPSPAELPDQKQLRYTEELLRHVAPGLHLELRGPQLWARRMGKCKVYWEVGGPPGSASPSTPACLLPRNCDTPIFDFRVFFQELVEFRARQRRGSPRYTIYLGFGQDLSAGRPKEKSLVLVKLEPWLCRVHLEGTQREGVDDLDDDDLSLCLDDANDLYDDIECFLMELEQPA
| Sequence | fitted relative affinity [z-score] |
| --- | --- |
| GACGGTCTCCTACTGGTGAC | 0.0604 |
| TCACATATATATATGAAACT | 0.673 |
| CTGTACATCTATGTAGAAAG | 0.347 |
| TCATTTCTACGTCTGATACT | 2.06 |
| TCAAATTCTCTTTTCACACT | 1.58 |
| TTAGGTTCCGTTTTCCTTTA | 5.41 |
| CTGCGGTGAGTGCGTTATCG | -0.271 |
| TGAGGACTGCTTATCCTTTA | 0.276 |

Series 5
Target: Replicase polyprotein 1ab, main protease (rep, Severe acute respiratory syndrome coronavirus 2, UniProt P0DTD1)
Read-out: enzyme activity
Mode: inhibitor
Tested at: 20 µM
Setting: primary screen
| SMILES | inhibition |
| --- | --- |
| N=C(N)N=Nc1ccc(NNC(=N)S)cc1 | 97.5% |
| CCCC[C@H](NC(=O)[C@@H]1[C@@H]2[C@H](CN1C(=O)[C@@H](NC(=O)NC1(CS(=O)(=O)C(C)(C)C)CCCCC1)C(C)(C)C)C2(C)C)C(=O)C(=O)NC1CC1 | 76.1% |
| CO/N=C(\C(=O)N[C@@H]1C(=O)N2C(C(=O)OCOC(=O)C(C)(C)C)=C(/C=C\c3scnc3C)CS[C@H]12)c1csc(N)n1 | 41.5% |
| CO[C@H]1C([C@@]2(C)O[C@@H]2CC=C(C)C)[C@]2(CC[C@H]1OC(=O)NC(=O)CCl)CO2 (stereo partly drawn) | 65.3% |

Series 6
Target: RNA binding protein fox-1 homolog 2, RRM domain, GST-SBP tag (RBFOX2, Homo sapiens, UniProt O43251-10, residues 100-194)
Technique: RNA Bind-n-Seq
Form: RNA
Matrix: in vitro
Tested at: 365 nM
Setting: natural RNA segment, single round, ends assumed
Baseline: no-protein control
Reading: higher = stronger binding
Shared flanks, not repeated: GGGAGUUCUACAGUCCGACGAUC … UGGAAUUCUCGGGUGCCAA
Construct (chain): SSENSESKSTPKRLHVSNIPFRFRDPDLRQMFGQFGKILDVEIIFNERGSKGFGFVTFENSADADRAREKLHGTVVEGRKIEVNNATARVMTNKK
| Sequence | RBNS enrichment (R) |
| --- | --- |
| GAGAAAUGUCCAAAAGAGAUCUGCUGAUCUGCUGAGAGUUUCAAACAAACAAAAAAAUAAUCUCUAUGUAUGUGUUGGAUAAAGUCUACAGACUGACUAACAUGCAUUAG | 0.48 |
| ACACAGUGAAUAACCUCUUGGAGUAUUUUUGGCUUUAUAUAAAACAAGGUUUUUAAUUGUAAAGUAUAAGUGCCAUUAGAAAAUGCACAGGGCAUAUCUUUGUUAAAGUA | 0.36 |
| CCAGCCAGUUGCCUUUGCUCAGAACUCCAUGGGGGUCUUCCCUUUCCAGCAGACCGGGUGCAUCCCUUUUCCUAAUACCUAAUAAAGAGCUUGACAGUGAUAUCCGCCAU | 0.903 |
| UUCUAUUCAUUUUCAGUUAUAUGAUUGAUUUACUUAUGCCAAGAUUCUGUCACUGUCAGUUAUUUAAUGAGUGUUUUUUCAGGGUCUGUUUUAAGAUCAUUAUUUGAUAG | 0.515 |
| AAUAUGUUAAGAUCUAUGGAUAUUCUGUAGCAAGAGAAAAUAUCUUUGCCUUAACUCCACUGCUGUGGUUGUUCCUUGGACCUGACCGAUGCUCAUACAAUAAUCUCAAG | 0.82 |
| AUUCAUGCUUGAAGUAACCUUGCCGACAGUUGUGUGGCACAGACUCCCAGUACCAGCAAGGGGGCCGUAGGUAAUUGUGUGCUUUCUUAAAGAAGUGUAUGUUUUCUGAA | 0.764 |
| ACAAACAAAAAAAUAAUCUCUAUGUAUGUGUUGGAUAAAGUCUACAGACUGACUAACAUGCAUUAGCAAAUGGAGCAUCAGUAGGUAGCAACAUGAUAAUUUAUGUAACU | 0.351 |
| CUAAAAUCUGAUUUGCAGCCAGGAAAGAAUUUUCUCACCCAAGGAACAUUUGAUCUAGCAGCAGGGAUGAGAGGAAAGCAGAAAUGAAUGAACUGUGAAAGCUCCUGUUU | 0.566 |
